Results collected from several papers.
Each line is one published result; not all experiments were run side by side. “And” joins repeats or separate records; there may be more than shown. ± marks the error that the study gave. In brackets after ≈: the same amount, converted by molar mass.
TDP1: Tyrosyl-DNA phosphodiesterase 1 (TDP1, Homo sapiens, UniProt Q9NUW8)
Chain of UniProt Q9NUW8 (whole entry, looked up): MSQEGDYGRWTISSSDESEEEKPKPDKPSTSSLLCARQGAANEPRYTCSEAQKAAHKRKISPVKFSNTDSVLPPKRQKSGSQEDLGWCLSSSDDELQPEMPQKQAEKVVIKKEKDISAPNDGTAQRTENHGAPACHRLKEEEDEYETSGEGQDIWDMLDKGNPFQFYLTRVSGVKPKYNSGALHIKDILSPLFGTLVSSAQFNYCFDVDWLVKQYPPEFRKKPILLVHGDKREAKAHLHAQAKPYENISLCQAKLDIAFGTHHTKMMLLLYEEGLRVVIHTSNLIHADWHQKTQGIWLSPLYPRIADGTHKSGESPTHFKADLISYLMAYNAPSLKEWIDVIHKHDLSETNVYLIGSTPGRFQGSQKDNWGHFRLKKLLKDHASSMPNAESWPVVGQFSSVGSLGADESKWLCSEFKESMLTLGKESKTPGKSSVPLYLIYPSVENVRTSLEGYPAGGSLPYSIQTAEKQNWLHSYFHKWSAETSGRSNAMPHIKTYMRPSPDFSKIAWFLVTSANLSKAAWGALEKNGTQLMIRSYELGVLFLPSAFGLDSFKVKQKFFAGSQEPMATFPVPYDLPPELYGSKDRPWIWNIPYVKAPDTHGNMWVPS

The inhibition of `O=C(CCCc1cn(C[C@H]2O[C@@H]3O[C@H]4[C@H](O)[C@@H](O)[C@@H](O[C@H]5[C@H](O)[C@@H](O)[C@@H](O[C@H]6[C@H](O)[C@@H](O)[C@@H](O[C@H]7[C@H](O)[C@@H](O)[C@@H](O[C@H]8[C@H](O)[C@@H](O)[C@@H](O[C@H]9[C@H](O)[C@@H](O)[C@@H](O[C@H]2[C@H](O)[C@H]3O)O[C@@H]9CO)O[C@@H]8CO)O[C@@H]7CO)O[C@@H]6CO)O[C@@H]5CO)O[C@@H]4CO)nn1)N[C@H]1CCOC1=O` is reported as 19 ± 4% (Escherichia coli; LuxR reporter, antagonist; DH5α sensor strain; 100 µM, with: OHHL 200 nM).
`Cc1ccnc(-c2cc(C(=O)NCCCCCC(=O)N[C@@H](CCCNC(=N)N)C(=O)N[C@@H](Cc3c[nH]c4ccccc34)C(=O)N[C@@H](CCCNC(=N)N)C(=O)N[C@@H](Cc3c[nH]c4ccccc34)C(=O)N[C@@H](CCCNC(=N)N)C(=O)N[C@@H](Cc3c[nH]c4ccccc34)C(N)=O)ccn2)c1` — result for “reduction in viable count”: less than 3 log10 CFU (Escherichia coli; susceptible; 16 µM, dark; reference: untreated).
`CO[C@@H]1[C@@H](OC)[C@H]2O[C@H]3[C@H](OC)[C@@H](OC)[C@@H](O[C@H]4[C@H](OC)[C@@H](OC)[C@@H](O[C@H]5[C@H](OC)[C@@H](OC)[C@@H](O[C@H]6[C@H](OC)[C@@H](OC)[C@@H](O[C@H]7[C@H](OC)[C@@H](OC)[C@@H](O[C@@H]1[C@@H](Cn1cc(CCCC(=O)N[C@H]8CCOC8=O)nn1)O2)O[C@@H]7Cn1cc(CCCC(=O)N[C@H]2CCOC2=O)nn1)O[C@@H]6Cn1cc(CCCC(=O)N[C@H]2CCOC2=O)nn1)O[C@@H]5Cn1cc(CCCC(=O)N[C@H]2CCOC2=O)nn1)O[C@@H]4Cn1cc(CCCC(=O)N[C@H]2CCOC2=O)nn1)O[C@@H]3Cn1cc(CCCC(=O)N[C@H]2CCOC2=O)nn1` gave an inhibition of 3 ± 1% (Escherichia coli; LuxR reporter, antagonist; DH5α sensor strain; 1 µM, with: OHHL 200 nM).
With `CN(C)S(=O)(=O)c1ccc(-c2ccc(C=NOCc3ccc(-c4nc5cc(-c6ccccc6)ccn5c4Nc4ccc(C(=O)O)cc4)cc3)o2)cc1` (mixture of isomers) the inhibition was 85.8% (TDP1; enzyme activity, inhibitor; 100 µM, unpurified compound).
With `OC[C@H]1O[C@@H]2O[C@H]3[C@H](O)[C@@H](O)[C@@H](O[C@H]4[C@H](O)[C@@H](O)[C@@H](O[C@H]5[C@H](O)[C@@H](O)[C@@H](O[C@H]6[C@H](O)[C@@H](O)[C@@H](O[C@H]7[C@H](O)[C@@H](O)[C@@H](O[C@H]1[C@H](O)[C@H]2O)O[C@@H]7CO)O[C@@H]6CO)O[C@@H]5CO)O[C@@H]4CO)O[C@@H]3CO` the inhibition was -1 ± 1% (Escherichia coli; LuxR reporter, antagonist; DH5α sensor strain; 1 µM, with: OHHL 200 nM).
`O=C(Oc1cccccc1=O)c1ccc(Cl)cc1` gave an MIC80 of 100 µM (≈ 26.1 µg/mL) (Escherichia coli; microbial growth, broth dilution; ATCC35218).
`CC(CCCOC(=O)CCC[N+](C)(C)C)C1CCC2C3CCC4CC(OC(=O)CCC[N+](C)(C)C)CCC4(C)C3CCC12C` (centres unmarked) has an inhibition zone of 15 mm (Escherichia coli; microbial growth, disc diffusion; ATCC25922; 250 µg/disc, 24 h).
`CO[C@@H]1[C@@H](OC)[C@H]2O[C@H]3[C@H](OC)[C@@H](OC)[C@@H](O[C@H]4[C@H](OC)[C@@H](OC)[C@@H](O[C@H]5[C@H](OC)[C@@H](OC)[C@@H](O[C@H]6[C@H](OC)[C@@H](OC)[C@@H](O[C@H]7[C@H](OC)[C@@H](OC)[C@@H](O[C@H]8[C@H](OC)[C@@H](OC)[C@@H](O[C@@H]1[C@@H](Cn1cc(CCCC(=O)N[C@H]9CCOC9=O)nn1)O2)O[C@@H]8Cn1cc(CCCC(=O)N[C@H]2CCOC2=O)nn1)O[C@@H]7Cn1cc(CCCC(=O)N[C@H]2CCOC2=O)nn1)O[C@@H]6Cn1cc(CCCC(=O)N[C@H]2CCOC2=O)nn1)O[C@@H]5Cn1cc(CCCC(=O)N[C@H]2CCOC2=O)nn1)O[C@@H]4Cn1cc(CCCC(=O)N[C@H]2CCOC2=O)nn1)O[C@@H]3Cn1cc(CCCC(=O)N[C@H]2CCOC2=O)nn1` has an inhibition of 6% (Escherichia coli; LuxR reporter, antagonist; DH5α sensor strain; 1 µM, with: OHHL 200 nM).
The IC50 of `CC[C@H](C)[C@H](NC(=O)[C@H](CC1CCCCC1)NC(=O)[C@@H](NC(=O)[C@@H](N)CCCN)c1ccccc1)C(=O)N[C@H](Cc1ccccc1)C(=O)N[C@@H](Cc1cn(Cc2ccccc2)cn1)C(N)=O` is reported as greater than 20 µg/mL (Escherichia coli; bacterial growth; ATCC 35218).
`CC[C@H](C)[C@H](NC(=O)[C@@H]1CCCN1C(=O)[C@H](CCSC)NC(=O)[C@H](CC(C)C)NC(=O)[C@H](Cc1ccccc1)NC(=O)[C@H](Cc1ccc(O)cc1)NC(=O)[C@@H]1CCC(=O)NCC(=O)NCC(=O)NCC(=O)NCC(=O)N2CCC[C@H]2C(=O)N[C@@H]([C@@H](C)O)C(=O)N2CCC[C@H]2C(=O)N1)C(=O)N[C@@H](CC(=O)O)C(=O)N1CCC[C@H]1C(=O)N[C@@H](C)C(=O)N[C@@H](Cc1c[nH]c2ccccc12)C(=O)N[C@@H](CC(C)C)C(=O)N[C@@H](CCC(N)=O)C(=O)N[C@@H](C)C(=O)N[C@@H](CC(N)=O)C(=O)N[C@@H](CC(C)C)C(=O)N1CCC[C@H]1C(=O)N[C@@H](CC(N)=O)C(=O)N[C@H](C(=O)NCC(=O)N[C@@H](CCCCN)C(=O)N[C@@H](Cc1ccc(O)cc1)C(=O)N[C@@H](CC(N)=O)C(=O)O)[C@@H](C)O` — result for antimicrobial activity: “inactive” (Escherichia coli; spot-on-lawn; MG1655 wild type; concentration not given, 37 °C).
`O=C(O)c1ccc(Nc2c(-c3ccc(CON=CC4(c5ccccc5Cl)CCOCC4)cc3)nc3cc(-c4ccccc4)ccn23)cc1` gave an inhibition of 30.1% (TDP1; enzyme activity, inhibitor; 100 µM, unpurified compound).
The MIC50 of `COc1cc2c(cc1OC)C1Cc3ccc(OC)c(OC)c3C[NH+]1CC2.[Cl][Fe-]([Cl])([Cl])[Cl]` (centres unmarked) is reported as 1410 µM (Escherichia coli; 24 h, 37 °C).
For `COc1c(C)c(OC(=O)c2ccccc2)c(C)c(OC(=O)c2ccccc2)c1C(=O)/C=C/c1ccccc1`, the inhibition zone was 9 mm (Escherichia coli; microbial growth, well diffusion; ATCC25922; 5 µg/mL).
The inhibition zone of `CC(C)C1=CC2=CCC3C(C)(C(=O)OCCC[N+](C)(C)C)CCCC3(C)C2CC1` (centres unmarked) is reported as 9 mm (Escherichia coli; microbial growth, disc diffusion; ATCC25922; 62.5 µg/disc, 24 h).
`CC[C@H](C)[C@H](NC(=O)[C@H](CC1CCCCC1)NC(=O)[C@@H]1CCCN1C(=O)[C@@H](N)CCCN)C(=O)N[C@H](Cc1ccccc1)C(=O)N[C@@H](Cc1cn(Cc2ccccc2)cn1)C(N)=O` gave an IC50 of greater than 20 µg/mL (Escherichia coli; bacterial growth; ATCC 35218).
The MBC of `CCCCCC(=O)Oc1c(C)c(OC)c2c(/C=C/c3ccccc3)c(CCCC)c(=O)oc2c1C` is reported as greater than 5000 µg/mL (Escherichia coli; microbial killing, broth dilution; ATCC25922).
`O=C(CCCc1cn(C[C@H]2O[C@@H]3O[C@H]4[C@H](O)[C@@H](O)[C@@H](O[C@H]5[C@H](O)[C@@H](O)[C@@H](O[C@H]6[C@H](O)[C@@H](O)[C@@H](O[C@H]7[C@H](O)[C@@H](O)[C@@H](O[C@H]8[C@H](O)[C@@H](O)[C@@H](O[C@H]9[C@H](O)[C@@H](O)[C@@H](O[C@H]2[C@H](O)[C@H]3O)O[C@@H]9Cn2cc(CCCC(=O)N[C@H]3CCOC3=O)nn2)O[C@@H]8Cn2cc(CCCC(=O)N[C@H]3CCOC3=O)nn2)O[C@@H]7Cn2cc(CCCC(=O)N[C@H]3CCOC3=O)nn2)O[C@@H]6Cn2cc(CCCC(=O)N[C@H]3CCOC3=O)nn2)O[C@@H]5Cn2cc(CCCC(=O)N[C@H]3CCOC3=O)nn2)O[C@@H]4Cn2cc(CCCC(=O)N[C@H]3CCOC3=O)nn2)nn1)N[C@H]1CCOC1=O` has an inhibition of 58 ± 18% (Escherichia coli; LuxR reporter, antagonist; DH5α sensor strain; 20 µM, with: OHHL 200 nM).
For `OB(O)c1ccc(C(F)(F)F)s1`, the growth was 90.6% and 77.3% and 94.7% and 121% and 87% (Escherichia coli; 100 µM, 10 h; reference: untreated).
`O=C(CCCc1cn(C[C@H]2O[C@@H]3O[C@H]4[C@H](O)[C@@H](O)[C@@H](O[C@H]5[C@H](O)[C@@H](O)[C@@H](O[C@H]6[C@H](O)[C@@H](O)[C@@H](O[C@H]7[C@H](O)[C@@H](O)[C@@H](O[C@H]8[C@H](O)[C@@H](O)[C@@H](O[C@H]2[C@H](O)[C@H]3O)O[C@@H]8Cn2cc(CCCC(=O)N[C@H]3CCOC3=O)nn2)O[C@@H]7Cn2cc(CCCC(=O)N[C@H]3CCOC3=O)nn2)O[C@@H]6Cn2cc(CCCC(=O)N[C@H]3CCOC3=O)nn2)O[C@@H]5Cn2cc(CCCC(=O)N[C@H]3CCOC3=O)nn2)O[C@@H]4Cn2cc(CCCC(=O)N[C@H]3CCOC3=O)nn2)nn1)N[C@H]1CCOC1=O` has an inhibition of 5 ± 4% (Escherichia coli; LuxR reporter, antagonist; DH5α sensor strain; 20 µM, with: OHHL 200 nM).
`N=C(N)NCCC[C@@H]1NC(=O)[C@H](CCCNC(=N)N)NC(=O)[C@@H](C(c2ccccc2)c2ccccc2)NC(=O)[C@H](Cc2c[nH]c3ccccc23)NC(=O)[C@@H](C(c2ccccc2)c2ccccc2)NC(=O)[C@@H](CCCNC(=N)N)NC(=O)[C@@H](CCCNC(=N)N)NC1=O`: “biofilm mass reduction” 41 to 49% (Escherichia coli; ATCC BAA-2452; 1 x MIC, 24 h, preformed biofilm).
